Assay results collected from several papers.
Compare with care: the assays were run in different laboratories. ± gives the spread as reported.

O=c1c(/C=C/c2ccccc2Br)nc2ccccc2n1Cc1ccccc1 — IC50 (HeLa 229; cell growth or viability, MTT; 72 h): > 50 µM
CC(C)N(C(=S)[S][Sn]([c]1ccccc1)([c]1ccccc1)[c]1ccccc1)C(C)C — IC50 (WIL2-NS; cell growth or viability, MTT): 0.55 µM
Nn1c(SCC(=O)Nc2ccccc2Cl)nnc1-c1ccc(NC(=O)c2cccnc2)cc1 — IC50 (RAW264.7; NO release, inhibitor, Griess; LPS-stimulated): 7.83 µM
CC(C)Oc1ccc(C(=O)Cn2ccnc2)cc1-n1c(CN2CCN(C(=O)COc3ccc(Cl)cc3)CC2)nc2ccccc2c1=O — IC50 (SU-DHL-6; cell viability, CellTiter-Glo; 24 h): < 0.1 µM
Cc1c(C)c2c(c(C)c1O)CCC(C)(C(=O)O)O2 (centres unmarked) — IC50 (HL-60; reactive oxygen species, inhibitor, fluorescence): 0.11 µg/mL
Nc1nc2[nH]c(CCCCc3ccc(C(=O)N[C@@H](CCC(=O)O)C(=O)O)nc3)cc2c(=O)[nH]1 — IC50 (IGROV1; cell growth; without folic acid): < 0.001 µM
Clc1ccc(C2(c3ccc(-c4cn[nH]c4)cc3)CCNCC2)cc1 — IC50 (Raji shCTL; intracellular flow cytometry, measured: TRAF1; 24 h, extrapolated, not maximally reduced): 1.4 µM
CCNC(=O)Nc1ccc(S(=O)(=O)Oc2cccnc2Br)cc1 — IC50 (MOLM-13; cell growth or viability, MTT; 48 h): 1.9 µM
O=C(CCOCCOc1c2cccc1Cc1cccc(c1O)Cc1cccc(c1OCCOCCC(=O)Nc1ccc(-n3nc(-c4ccccc4O)nc3-c3ccccc3O)cc1)Cc1cccc(c1O)C2)Nc1ccc(-n2nc(-c3ccccc3O)nc2-c2ccccc2O)cc1 — IC50 (HepaRG; cell viability, MTT; 72 h, added: Fe(III) 20 µM): 125 ± 5 µM
CCCCCOC(=O)Nc1nc(=O)n([C@@H]2O[C@H](C)[C@@H](O)[C@H]2O)cc1F — IC50 (ASPC1; cell growth or viability, MTT; 72 h): > 200 µM
O=C1Nc2ccc(Cl)cc2C1n1nc(-c2c(O)c3ccccc3oc2=O)cc1-c1ccc(Br)cc1 (centres unmarked) — IC50 (A-375; cell growth or viability, SRB; 72 h): 6.25 µM
O=c1c2ccccc2c(-c2nnc(SCNc3ccc([N+](=O)[O-])cc3)o2)nn1CNc1ccc([N+](=O)[O-])cc1 — IC50 (WI-38; MTT; 48 h): ~22 µM
Cc1ccc(C)c(NC(=O)CSc2nnc(-c3ccc(NC(=O)c4cccnc4)cc3)o2)c1 — IC50 (RAW264.7; TNF-α release, inhibitor, ELISA; LPS-stimulated): 1.87 µM
CCCCC[C@H](CC(=O)NO)C(=O)N[C@H](C(=O)N1CCC[C@H]1CO)C(C)C — IC50 (U-937; aminopeptidase activity; added: Ala-AMC 50): 0.16 µM
O=c1[nH]c2ccccc2nc1/C=C/c1ccccc1 — IC50 (HeLa 229; cell growth or viability, MTT; 72 h): > 50 µM
O=C1Nc2ccc(Cl)cc2C1n1nc(-c2c(O)c3ccccc3oc2=O)cc1-c1ccc(Cl)cc1 (centres unmarked) — IC50 (A-375; cell growth or viability, SRB; 72 h): 5.43 µM
c1cc(-c2cnn3cc(-c4ccc(OCCN5CCCCC5)cc4)cnc23)ccn1 — IC50 (mouse PASMC; Smad1/5/8 phosphorylation, inhibitor, immunoblotting; added: BMP4 10 ng/mL): ~0.4 µM
Cc1cc(C(=O)/C(=C\c2ccc(Br)cc2)c2ccc(Br)cc2)c(C(=O)N2CCCCC2)c(=O)[nH]1 — IC50 (A-375; cell proliferation, MTT; 72 h): > 10 µM
C=CCc1ccc(OCc2nn(CN3CCOCC3)c(=S)o2)c(OC)c1 — IC50 (MCF7, SK-OV-3, PC-3; cell growth, MTT): ≤ 10 µM
O=C1c2cccc(O)c2C(=O)c2c(O)cc(CO)cc21 — IC50 (U-937; cell growth or viability, ATP luminescence; 24 h): 250 µM
CC[n+]1c(/C=C/C=C2/N(C)c3ccccc3C2(C)C)sc2ccccc21 — IC50 (hiPSC hepatic differentiation phase I; cell viability, CCK-8; 48 h): 0.26 ± 0.01 µM
Nn1c(SCC(=O)Nc2ccc(F)cc2)nnc1-c1ccc(NC(=O)c2cccnc2)cc1 — IC50 (RAW264.7; NO release, inhibitor, Griess; LPS-stimulated): 10.1 µM
CCCCCC(O)C=CCO (centres unmarked) — IC50 (SH-SY5Y; cell growth or viability, SRB; 24 h): 758 µM

For quick reference, copied from above:
O=C1c2cccc(O)c2C(=O)c2c(O)cc(CO)cc21 — IC50 (U-937; cell growth or viability, ATP luminescence; 24 h): 250 µM
CC[n+]1c(/C=C/C=C2/N(C)c3ccccc3C2(C)C)sc2ccccc21 — IC50 (hiPSC hepatic differentiation phase I; cell viability, CCK-8; 48 h): 0.26 ± 0.01 µM
Nn1c(SCC(=O)Nc2ccc(F)cc2)nnc1-c1ccc(NC(=O)c2cccnc2)cc1 — IC50 (RAW264.7; NO release, inhibitor, Griess; LPS-stimulated): 10.1 µM
